{"data": "Values quoted from earlier work that unrelated publications cite", "note": "Numbered parts are unrelated; values within a part may stem from several laboratories."}
{"data": "Set 1", "organism": "Cryptosporidium parvum", "technique": "high-throughput screen", "concentration": "concentration not given"}
{"Structure (SMILES)": "CC(C)(C)NCC(O)c1ccc(O)c(CO)c1.CC(C)(C)NCC(O)c1ccc(O)c(CO)c1.O=S(=O)(O)O (stereo not drawn)", "activity": "inactive"}
{"Structure (SMILES)": "C[C@H](CS)C(=O)N1CCC[C@H]1C(=O)O", "activity": "inactive"}
{"Structure (SMILES)": "CN1[C@@H](CC(=O)c2ccccc2)CCC[C@H]1C[C@H](O)c1ccccc1.Cl", "activity": "inactive"}
{"Structure (SMILES)": "CCS(=O)(=O)CCn1c([N+](=O)[O-])cnc1C", "activity": "inactive"}
{"Structure (SMILES)": "Cc1c(OCC(F)(F)F)ccnc1C[S+]([O-])c1nc2ccccc2[nH]1 (stereo not drawn)", "activity": "inactive"}
{"Structure (SMILES)": "CC[C@]1(O)C[C@@H]2CN(CCc3c([nH]c4ccccc34)[C@@](C(=O)OC)(c3cc4c(cc3OC)N(C)[C@H]3[C@@](O)(C(N)=O)[C@H](O)[C@]5(CC)C=CCN6CC[C@]43[C@@H]65)C2)C1", "activity": "inactive"}
{"Structure (SMILES)": "COc1cccc2c1C(=O)c1c(O)c3c(c(O)c1C2=O)C[C@@](O)(C(=O)CO)C[C@@H]3O[C@H]1C[C@H](N)[C@@H](O)[C@H](C)O1", "activity": "inactive"}
{"Structure (SMILES)": "Cc1ccc(Cl)c(Nc2ccccc2C(=O)O)c1Cl", "activity": "inactive"}
{"Structure (SMILES)": "CC(=O)/N=c1/sc(S(N)(=O)=O)nn1C", "activity": "inactive"}
{"Structure (SMILES)": "COc1cc(C)c(/C=C/C(C)=C/C=C/C(C)=C/C(=O)O)c(C)c1C", "activity": "inactive"}
{"Structure (SMILES)": "CC(C)(C)NC(=O)[C@@H]1CN(Cc2cccnc2)CCN1C[C@@H](O)C[C@@H](Cc1ccccc1)C(=O)N[C@H]1c2ccccc2C[C@H]1O", "activity": "inactive"}
{"Structure (SMILES)": "CCCc1nc(C)c2c(=O)[nH]c(-c3cc(S(=O)(=O)N4CCN(CC)CC4)ccc3OCC)nn12.O=C(O)CC(O)(CC(=O)O)C(=O)O", "activity": "inactive"}
{"Structure (SMILES)": "CN(C)CCC[C@@]1(c2ccc(F)cc2)OCc2cc(C#N)ccc21", "activity": "inactive"}
{"Structure (SMILES)": "Fc1ccc([C@@H]2CCNC[C@H]2COc2ccc3c(c2)OCO3)cc1", "activity": "inactive"}
{"Structure (SMILES)": "C/C(=C\\C(=O)OCCCCCCCCC(=O)O)C[C@@H]1OC[C@H](C[C@@H]2O[C@H]2[C@@H](C)[C@H](C)O)[C@@H](O)[C@H]1O", "activity": "inactive"}
{"Structure (SMILES)": "Cc1c(O)cccc1C(=O)N[C@@H](CSc1ccccc1)[C@H](O)CN1C[C@H]2CCCC[C@H]2C[C@H]1C(=O)NC(C)(C)C", "activity": "inactive"}
{"Structure (SMILES)": "CN(C)CCCN1c2ccccc2CCc2ccc(Cl)cc21", "activity": "inactive"}
{"Structure (SMILES)": "COc1c2occc2cc2ccc(=O)oc12", "activity": "inactive"}
{"Structure (SMILES)": "CN1CCC(=C2c3ccccc3C=Cc3ccccc32)CC1", "activity": "inactive"}
{"Structure (SMILES)": "CN(C)[C@@H]1C(O)=C(C(=O)NCN2CCCC2)C(=O)[C@@]2(O)C(O)=C3C(=O)c4c(O)cccc4[C@@](C)(O)[C@H]3C[C@@H]12", "activity": "inactive"}
{"Structure (SMILES)": "CCOC(=O)[C@H](CCc1ccccc1)N[C@@H](C)C(=O)N1CCC[C@H]1C(=O)O", "activity": "inactive"}
{"data": "Set 2", "SMILES": "Cc1cc(Nc2nccc(C)n2)cc(-c2cnc([C@@]3(O)CC[C@H](C(=O)O)C(C)(C)C3)s2)c1", "notes": "kinase panel"}
{"target": "JAK2", "IC50 [nM]": 242}
{"target": "NTRK3", "IC50 [nM]": 120}
{"target": "FYN", "IC50 [nM]": 205}
{"data": "Single results of other studies"}
{"Compound": "CC(=O)[C@H]1CC[C@H]2[C@@H]3CCC4=CC(=O)CC[C@]4(C)[C@H]3CC[C@]12C", "system": "FaSSIF", "conditions": "literature value", "quantity": "solubility", "value": "25.5 µg/mL"}
{"Compound": "Cc1c(C(=O)O)ccc2c3n(nc12)[C@@H]1[C@H](C3)N(CC2CC2)[C@@]2(C(=O)Nc3cc(Cl)ccc32)[C@H]1c1cccc(Cl)c1F", "system": "human glioblastoma patients, tumor tissue", "conditions": "dose not given", "quantity": "tumor concentration", "value": "80 to 900 nM"}
{"Compound": "Cc1ccc(Nc2nccc(N(C)c3ccc4c(C)n(C)nc4c3)n2)cc1S(N)(=O)=O", "system": "post-chemotherapy soft tissue sarcoma", "conditions": "dose not given", "quantity": "duration of response", "value": "~9 months"}
{"Compound": "Cc1cc(C#N)cc(C)c1Oc1nc(Nc2ccc(C#N)cc2)nc(N)c1Br", "system": "FaSSIF", "quantity": "solubility", "value": "~0.99 µg/mL"}
{"Compound": "O=C(Nc1ccc(OC(F)(F)Cl)cc1)c1cnc(N2CC[C@@H](O)C2)c(-c2ccn[nH]2)c1", "system": "healthy male humans", "conditions": "oral, dose not given", "quantity": "Tmax", "value": "2 h"}
{"Compound": "COc1ccc2c(c1OC)CN1CCc3cc4c(cc3C1=C2)OCO4", "target or system": "mouse lymphoma L5178Y TK cells", "conditions": "concentration not given", "quantity": "cytotoxicity", "value": "not toxic"}
{"Compound": "Cc1cc2nc3c(=O)[nH]c(=O)nc-3n(C[C@H](O)[C@H](O)[C@H](O)CO)c2cc1C", "system": "human", "conditions": "oral, up to 60 mg", "quantity": "Tmax", "value": "2 h"}
{"Compound": "C[C@@H](N)C1CCN(S(=O)(=O)c2cccc3cnccc23)CC1", "system": "mouse, CCM knockout", "conditions": "hemorrhage-associated iron deposition", "quantity": "lowest dose reducing nonheme iron", "value": "1 mg/kg"}
{"Compound": "CCNCCCNCCCNCCCNCC", "system": "human patients", "conditions": "dose not given, once daily", "quantity": "patients with tumour growth control", "value": "~10%"}
{"Compound": "CCN(c1cc(-c2ccc(CN3CCOCC3)cc2)cc(C(=O)NCc2c(C)cc(C)[nH]c2=O)c1C)C1CCOCC1", "system": "epithelioid sarcoma patients", "conditions": "dose not given, 32 weeks", "quantity": "disease control rate", "value": "26%"}
{"Compound": "CC[C@H](C)[C@H](NC(=O)[C@H](Cc1ccccc1)NC(=O)[C@H](CCC(=O)O)NC(=O)[C@H](CCCCNC(=O)COCCOCCNC(=O)COCCOCCNC(=O)CC[C@H](NC(=O)CCCCCCCCCCCCCCCCC(=O)O)C(=O)O)NC(=O)[C@H](C)NC(=O)[C@H](C)NC(=O)[C@H](CCC(N)=O)NC(=O)CNC(=O)[C@H](CCC(=O)O)NC(=O)[C@H](CC(C)C)NC(=O)[C@H](Cc1ccc(O)cc1)NC(=O)[C@H](CO)NC(=O)[C@H](CO)NC(=O)[C@@H](NC(=O)[C@H](CC(=O)O)NC(=O)[C@H](CO)NC(=O)[C@@H](NC(=O)[C@H](Cc1ccccc1)NC(=O)[C@@H](NC(=O)CNC(=O)[C@H](CCC(=O)O)NC(=O)C(C)(C)NC(=O)[C@@H](N)Cc1cnc[nH]1)[C@@H](C)O)[C@@H](C)O)C(C)C)C(=O)N[C@@H](C)C(=O)N[C@@H](Cc1c[nH]c2ccccc12)C(=O)N[C@@H](CC(C)C)C(=O)N[C@H](C(=O)N[C@@H](CCCNC(=N)N)C(=O)NCC(=O)N[C@@H](CCCNC(=N)N)C(=O)NCC(=O)O)C(C)C", "system": "human, 85 kg reference", "conditions": "dose not given", "quantity": "central volume of distribution", "value": "3.59 L"}
{"Compound": "O=C(O)CC1CCN(C(=O)c2ccc(Cl)c(Cn3ccc4cc(C(F)(F)F)cc(Cl)c43)c2Cl)CC1", "target or system": "OATP1B", "system": "human", "conditions": "375 mg once daily", "quantity": "plasma coproporphyrin I exposure", "value": "no effect"}
{"Compound": "C[C@@H](N)C1CCN(S(=O)(=O)c2cccc3c(=O)[nH]ccc23)CC1", "target or system": "ROCK2 over ROCK1", "how to read": "baseline: ROCK1 over ROCK2 potency", "quantity": "selectivity ratio", "value": "~17 fold"}
{"Compound": "NC(=O)CC[C@@H]1NC(=O)[C@H](Cc2ccccc2)NC(=O)[C@H](Cc2ccc(O)cc2)NC(=O)CCSSC[C@@H](C(=O)N2CCC[C@H]2C(=O)N[C@H](CCCN=C(N)N)C(=O)NCC(N)=O)NC(=O)[C@H](CC(N)=O)NC1=O", "system": "human, von Willebrand disease patients", "conditions": "intravenous, 0.3 µg/kg", "quantity": "volume of distribution", "value": "25.9 L"}
{"Compound": "Cc1cccc(C)c1OCC(=O)N[C@@H](Cc1ccccc1)[C@@H](O)C[C@H](Cc1ccccc1)NC(=O)[C@H](C(C)C)N1CCCNC1=O", "target or system": "Human immunodeficiency virus", "test": "viral replication", "quantity": "EC50", "value": "0.07 µg/mL"}
{"Compound": "C[C@H]1O[C@@H](O[C@H]2[C@@H](O)C[C@H](O[C@H]3[C@@H](O)C[C@H](O[C@H]4CC[C@@]5(C)[C@H](CC[C@@H]6[C@@H]5C[C@@H](O)[C@]5(C)[C@@H](C7=CC(=O)OC7)CC[C@]65O)C4)O[C@@H]3C)O[C@@H]2C)C[C@H](O)[C@@H]1O", "system": "FaSSIF", "conditions": "literature value", "quantity": "solubility", "value": "15.6 µg/mL"}
{"Compound": "Cc1cc(C)c(CNC(=O)c2cc(Cl)c3c(c2C)O[C@@](C)([C@H]2CC[C@H](N(C)C)CC2)O3)c(=O)[nH]1", "system": "human", "conditions": "dose not given, together with: itraconazole, strong CYP3A and P-gp inhibitor", "how to read": "baseline: without itraconazole", "quantity": "total AUCinf increase", "value": "~4 fold"}
{"Compound": "Cc1[nH]c(/C=C2\\C(=O)Nc3ccc(C(=O)N[C@H](C)c4ccc(F)cc4)cc32)c(C)c1NC(=O)CCl", "target or system": "GRK5", "test": "kinase activity, inhibitor", "quantity": "IC50", "value": "8.6 nM"}
{"note": "A few entries again (single results of other studies):"}
{"Compound": "O=C(Nc1ccc(OC(F)(F)Cl)cc1)c1cnc(N2CC[C@@H](O)C2)c(-c2ccn[nH]2)c1", "system": "healthy male humans", "conditions": "oral, dose not given", "quantity": "Tmax", "value": "2 h"}
{"Compound": "COc1ccc2c(c1OC)CN1CCc3cc4c(cc3C1=C2)OCO4", "target or system": "mouse lymphoma L5178Y TK cells", "conditions": "concentration not given", "quantity": "cytotoxicity", "value": "not toxic"}
{"Compound": "Cc1cc2nc3c(=O)[nH]c(=O)nc-3n(C[C@H](O)[C@H](O)[C@H](O)CO)c2cc1C", "system": "human", "conditions": "oral, up to 60 mg", "quantity": "Tmax", "value": "2 h"}
